# Experimental data pooled from the literature.
# A part holds a random share of what one study measured.

# Study 1 — technique: universal PBM; molecule type: double-stranded DNA, one strand shown; matrix: in vitro; tested at: not given; reading: higher = stronger binding
# Target: Sal-like protein 4, full length isoform B (SALL4, Homo sapiens, UniProt Q9UJQ4-2, residues 1-616)
# Notes: 8-mer, flanks averaged, mean of replicates
Strand,E-score
ATAGATCC,0.0425
AAAAACCC,-0.0545
AGGTGGCG,-0.121
CACTGGGG,-0.292

# Study 2 — technique: protein-binding microarray; molecule type: double-stranded DNA, one strand shown; matrix: in vitro; tested at: 250 nM; notes: 60-bp whole probe; added: salmon DNA 0.4 mg/ml; reference: random background probes; reading: higher = stronger binding
# Target: Interferon regulatory factor 7, full length, phosphomimetic (IRF7, Homo sapiens, UniProt Q92985, residues 1-503, S101K/S471D/S472D/S475D/S476D/S477D/S483D/S484D/S487D)
# Target sequence (chain): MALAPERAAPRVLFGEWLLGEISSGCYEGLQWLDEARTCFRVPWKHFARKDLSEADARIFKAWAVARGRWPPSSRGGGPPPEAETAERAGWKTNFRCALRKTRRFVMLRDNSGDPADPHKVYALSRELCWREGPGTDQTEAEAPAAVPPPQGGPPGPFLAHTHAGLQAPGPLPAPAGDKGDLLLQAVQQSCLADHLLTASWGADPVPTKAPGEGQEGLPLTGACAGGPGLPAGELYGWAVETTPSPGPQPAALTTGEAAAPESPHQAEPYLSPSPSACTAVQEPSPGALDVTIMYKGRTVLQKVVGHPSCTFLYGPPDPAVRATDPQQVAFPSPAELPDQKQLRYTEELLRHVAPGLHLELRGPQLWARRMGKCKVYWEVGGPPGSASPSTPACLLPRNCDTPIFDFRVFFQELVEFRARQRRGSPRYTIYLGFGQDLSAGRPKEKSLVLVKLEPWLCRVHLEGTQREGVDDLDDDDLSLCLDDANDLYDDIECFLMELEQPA
Strand,log fluorescence
GCCTAGCACTTAGATTTCAGTCTTGATTAGTGCTAGGTCTTGATTCGCTTGACGCTGCTG,0.486 z-score
GCCTAGCACTTAGGACCGGGACTGGGTTAGTGCTAGGTCTTGATTCGCTTGACGCTGCTG,0.624 z-score
GCCTAGCACTCAAAAATCTCAATGGGACTGTGCTAGGTCTTGATTCGCTTGACGCTGCTG,-0.535 z-score
GCCTAGCACTTAAGTATCGACTTTCGGTTAGTGCTAGTCTTGATTCGCTTGACGCTGCTG,3.31 z-score

# Study 3 — technique: protein binding microarray; molecule type: double-stranded DNA, one strand shown; matrix: in vitro; tested at: not given; reference: not given; reading: higher = stronger binding
# Target: Histone acetyltransferase KAT6A, winged helix 1, GST fusion (KAT6A, Homo sapiens, UniProt Q92794, residues 1-85)
# Notes: 8-mer, flanks averaged, mean of 2 arrays, mostly near background
# Target sequence (chain): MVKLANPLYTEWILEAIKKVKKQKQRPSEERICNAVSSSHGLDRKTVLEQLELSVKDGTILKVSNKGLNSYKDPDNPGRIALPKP
Strand,E-score
ACCCATAG,-0.165
AAACGGCC,0.333
CGTTTGAA,0.026
GCGAGCAA,0.0131

# Single results of other studies
Molecule,target,test,system,conditions,scale,quantity,result
"PhoQ, residues 284 288 289 292 302 303 ASVMEA","PhoP, residues 12 14 15 18 19 SGWQI (Escherichia coli, UniProt P23836)","Sort-seq, refers to: YFP reporter",E. coli,"PhoQ-PhoP variant library, added: 10 µM Mg2+","reference: high Mg2+ state, higher = stronger signaling",fold induction,1.07

# Excerpt of the above (study 3):
Strand,E-score
GCGAGCAA,0.0131
